Measurements gathered from unrelated publications.
Numbered parts are unrelated; each lists some results of a single study.
UniProt Q8NEB9, sequence (whole entry, looked up): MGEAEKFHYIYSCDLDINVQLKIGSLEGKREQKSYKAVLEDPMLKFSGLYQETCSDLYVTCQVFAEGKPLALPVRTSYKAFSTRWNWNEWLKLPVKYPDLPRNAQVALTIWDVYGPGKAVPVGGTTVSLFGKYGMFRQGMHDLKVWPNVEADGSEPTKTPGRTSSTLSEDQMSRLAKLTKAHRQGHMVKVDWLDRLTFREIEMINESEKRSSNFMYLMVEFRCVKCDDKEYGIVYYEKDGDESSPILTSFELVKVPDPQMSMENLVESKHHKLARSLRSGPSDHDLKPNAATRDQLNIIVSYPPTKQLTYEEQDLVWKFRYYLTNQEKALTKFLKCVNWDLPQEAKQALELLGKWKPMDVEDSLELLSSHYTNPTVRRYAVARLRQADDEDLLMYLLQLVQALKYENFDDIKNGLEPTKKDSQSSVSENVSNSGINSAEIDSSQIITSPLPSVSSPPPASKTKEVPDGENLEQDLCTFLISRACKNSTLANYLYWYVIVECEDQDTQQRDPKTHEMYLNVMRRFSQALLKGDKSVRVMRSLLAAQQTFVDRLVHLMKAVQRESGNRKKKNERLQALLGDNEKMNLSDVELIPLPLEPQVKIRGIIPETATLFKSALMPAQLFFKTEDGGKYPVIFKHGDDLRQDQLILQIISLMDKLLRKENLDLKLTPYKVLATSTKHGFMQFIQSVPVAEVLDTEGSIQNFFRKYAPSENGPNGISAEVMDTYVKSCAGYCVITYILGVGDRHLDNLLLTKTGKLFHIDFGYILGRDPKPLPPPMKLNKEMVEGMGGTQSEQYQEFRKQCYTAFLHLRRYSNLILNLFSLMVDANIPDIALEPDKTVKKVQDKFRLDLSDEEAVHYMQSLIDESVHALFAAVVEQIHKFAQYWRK
UniProt Q8IW41, sequence (whole entry, looked up): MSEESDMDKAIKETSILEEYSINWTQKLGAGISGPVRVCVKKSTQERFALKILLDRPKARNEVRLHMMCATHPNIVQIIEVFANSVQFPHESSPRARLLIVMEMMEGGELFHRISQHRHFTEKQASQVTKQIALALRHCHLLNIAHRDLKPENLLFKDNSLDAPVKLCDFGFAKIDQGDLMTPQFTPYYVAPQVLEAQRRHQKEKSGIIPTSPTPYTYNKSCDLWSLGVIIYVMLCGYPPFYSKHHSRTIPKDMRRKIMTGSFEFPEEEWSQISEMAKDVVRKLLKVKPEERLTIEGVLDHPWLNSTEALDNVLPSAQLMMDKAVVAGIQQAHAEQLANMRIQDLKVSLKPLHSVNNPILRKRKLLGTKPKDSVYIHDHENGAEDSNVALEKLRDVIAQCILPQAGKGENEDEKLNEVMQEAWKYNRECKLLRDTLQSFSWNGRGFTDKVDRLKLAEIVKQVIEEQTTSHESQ
UniProt Q14012, sequence (whole entry, looked up): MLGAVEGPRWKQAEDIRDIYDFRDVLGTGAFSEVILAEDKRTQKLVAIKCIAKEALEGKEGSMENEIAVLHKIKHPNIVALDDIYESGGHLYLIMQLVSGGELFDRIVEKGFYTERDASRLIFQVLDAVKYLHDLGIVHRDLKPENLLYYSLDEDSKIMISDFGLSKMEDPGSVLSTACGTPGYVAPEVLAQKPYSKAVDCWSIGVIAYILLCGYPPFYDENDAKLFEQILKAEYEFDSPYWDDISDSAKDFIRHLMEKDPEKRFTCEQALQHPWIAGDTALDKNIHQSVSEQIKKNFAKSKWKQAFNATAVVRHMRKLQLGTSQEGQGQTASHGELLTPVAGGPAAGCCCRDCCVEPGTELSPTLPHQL
UniProt Q9Y616, sequence (whole entry, looked up): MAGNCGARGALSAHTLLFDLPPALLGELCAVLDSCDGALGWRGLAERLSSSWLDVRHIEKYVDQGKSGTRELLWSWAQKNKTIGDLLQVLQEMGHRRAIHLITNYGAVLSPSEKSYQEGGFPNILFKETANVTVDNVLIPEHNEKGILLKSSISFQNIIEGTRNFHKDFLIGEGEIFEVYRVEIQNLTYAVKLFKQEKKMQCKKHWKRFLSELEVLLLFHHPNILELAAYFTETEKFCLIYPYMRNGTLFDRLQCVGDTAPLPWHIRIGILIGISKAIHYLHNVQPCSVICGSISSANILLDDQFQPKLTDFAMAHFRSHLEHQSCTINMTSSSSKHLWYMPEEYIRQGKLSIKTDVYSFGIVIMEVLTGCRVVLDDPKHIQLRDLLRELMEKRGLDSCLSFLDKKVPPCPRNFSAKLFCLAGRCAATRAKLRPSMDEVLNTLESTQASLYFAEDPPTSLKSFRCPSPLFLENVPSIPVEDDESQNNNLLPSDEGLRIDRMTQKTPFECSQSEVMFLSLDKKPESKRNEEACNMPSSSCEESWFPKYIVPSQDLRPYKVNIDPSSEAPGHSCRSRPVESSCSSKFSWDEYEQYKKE
UniProt Q8N568, sequence (whole entry, looked up): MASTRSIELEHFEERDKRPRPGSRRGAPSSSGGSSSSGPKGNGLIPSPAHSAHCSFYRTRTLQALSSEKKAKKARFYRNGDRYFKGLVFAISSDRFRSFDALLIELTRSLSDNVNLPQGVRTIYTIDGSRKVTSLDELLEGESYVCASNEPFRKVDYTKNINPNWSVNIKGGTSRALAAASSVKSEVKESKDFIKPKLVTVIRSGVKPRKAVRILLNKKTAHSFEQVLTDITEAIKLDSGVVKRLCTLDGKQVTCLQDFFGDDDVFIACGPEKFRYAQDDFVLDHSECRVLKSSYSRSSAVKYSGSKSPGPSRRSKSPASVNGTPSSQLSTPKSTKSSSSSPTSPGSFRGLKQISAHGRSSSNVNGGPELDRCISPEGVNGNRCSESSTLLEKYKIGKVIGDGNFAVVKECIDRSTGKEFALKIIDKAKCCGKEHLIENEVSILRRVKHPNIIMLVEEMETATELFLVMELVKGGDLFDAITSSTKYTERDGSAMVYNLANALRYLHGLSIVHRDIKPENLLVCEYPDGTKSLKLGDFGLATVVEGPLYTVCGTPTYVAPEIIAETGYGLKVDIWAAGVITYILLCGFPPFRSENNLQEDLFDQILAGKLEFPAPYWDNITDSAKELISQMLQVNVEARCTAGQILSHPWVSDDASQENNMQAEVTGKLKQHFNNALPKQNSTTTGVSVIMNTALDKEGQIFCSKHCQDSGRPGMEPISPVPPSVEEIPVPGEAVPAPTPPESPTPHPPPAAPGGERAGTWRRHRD

Study 1
Compound: CC(C)n1cnc(-c2ccc(F)cc2)c1-c1ncc(C(=O)Nc2ccc(N3CCN(C)CC3)cc2)[nH]1
Method: phase 2a trial
Species: idiopathic pulmonary fibrosis patients
dose | notes | patients with pneumonia
all arms pooled | grade 5 emergent event | 0%
60 mg once daily | grade 4 emergent event | 0%
60 mg once daily | grade 1 emergent event | 0%
60 mg once daily | grade 2 emergent event | 0%
all arms pooled | grade 2 emergent event | 0%
all arms pooled | grade 4 emergent event | 0%
all arms pooled | grade 1 emergent event | 0%

Study 2
Target: Serine/threonine-protein kinase WNK3 (WNK3, Homo sapiens, UniProt Q9BYP7)
UniProt Q9BYP7, sequence (whole entry, looked up): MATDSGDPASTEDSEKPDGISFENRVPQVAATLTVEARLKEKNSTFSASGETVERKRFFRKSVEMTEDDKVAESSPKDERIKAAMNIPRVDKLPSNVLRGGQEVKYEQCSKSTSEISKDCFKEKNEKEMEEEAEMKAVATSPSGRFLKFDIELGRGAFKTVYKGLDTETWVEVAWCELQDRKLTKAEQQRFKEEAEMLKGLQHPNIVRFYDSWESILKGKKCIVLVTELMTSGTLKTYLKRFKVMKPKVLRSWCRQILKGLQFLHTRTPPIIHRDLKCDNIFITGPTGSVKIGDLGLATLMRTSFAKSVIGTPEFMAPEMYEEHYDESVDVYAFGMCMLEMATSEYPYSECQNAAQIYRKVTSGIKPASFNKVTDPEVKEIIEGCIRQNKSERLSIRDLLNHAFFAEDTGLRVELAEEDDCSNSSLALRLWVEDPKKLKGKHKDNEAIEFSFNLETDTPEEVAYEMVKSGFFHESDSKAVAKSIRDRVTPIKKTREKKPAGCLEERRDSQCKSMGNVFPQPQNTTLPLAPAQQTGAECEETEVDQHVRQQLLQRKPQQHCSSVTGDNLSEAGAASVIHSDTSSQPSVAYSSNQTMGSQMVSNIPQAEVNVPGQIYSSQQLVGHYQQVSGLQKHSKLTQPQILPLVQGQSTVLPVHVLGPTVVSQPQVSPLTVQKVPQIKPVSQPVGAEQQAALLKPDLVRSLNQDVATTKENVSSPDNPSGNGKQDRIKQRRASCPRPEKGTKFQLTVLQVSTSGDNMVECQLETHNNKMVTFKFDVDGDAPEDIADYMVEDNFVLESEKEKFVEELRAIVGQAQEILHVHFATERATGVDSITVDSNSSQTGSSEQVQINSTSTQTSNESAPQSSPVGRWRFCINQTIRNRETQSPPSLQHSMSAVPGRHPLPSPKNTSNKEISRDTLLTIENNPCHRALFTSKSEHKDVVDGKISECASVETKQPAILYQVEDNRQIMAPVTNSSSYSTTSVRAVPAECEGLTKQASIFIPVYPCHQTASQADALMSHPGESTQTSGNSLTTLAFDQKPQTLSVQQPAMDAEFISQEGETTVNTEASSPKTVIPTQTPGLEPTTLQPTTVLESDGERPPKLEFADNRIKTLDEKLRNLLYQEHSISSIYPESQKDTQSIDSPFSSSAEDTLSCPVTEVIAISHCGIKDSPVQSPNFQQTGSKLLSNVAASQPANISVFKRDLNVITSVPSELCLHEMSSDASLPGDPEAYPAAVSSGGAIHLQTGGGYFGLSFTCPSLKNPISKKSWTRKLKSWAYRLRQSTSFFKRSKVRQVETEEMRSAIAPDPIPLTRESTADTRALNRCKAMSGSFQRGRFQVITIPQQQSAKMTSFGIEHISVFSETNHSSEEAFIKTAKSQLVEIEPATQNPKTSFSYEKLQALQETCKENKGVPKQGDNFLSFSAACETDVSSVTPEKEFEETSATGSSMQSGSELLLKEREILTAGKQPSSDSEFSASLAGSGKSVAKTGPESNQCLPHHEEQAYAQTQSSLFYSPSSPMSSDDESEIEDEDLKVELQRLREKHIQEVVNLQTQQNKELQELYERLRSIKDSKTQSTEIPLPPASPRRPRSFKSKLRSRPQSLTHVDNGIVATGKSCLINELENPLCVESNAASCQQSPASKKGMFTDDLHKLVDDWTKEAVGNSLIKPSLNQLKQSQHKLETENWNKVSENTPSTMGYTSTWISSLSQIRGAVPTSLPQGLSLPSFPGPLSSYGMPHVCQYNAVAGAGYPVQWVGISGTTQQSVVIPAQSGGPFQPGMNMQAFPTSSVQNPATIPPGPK
Effect on: enzyme activity
Action: inhibitor
Concentration: 0.5 µM
Reference: control
SMILES | remaining activity [%]
Nc1ncnc2n[nH]c(Nc3ccc(F)cc3)c12 | 103
NCCNc1ncc(C(N)=O)c(Nc2cccc(C(F)(F)F)c2)n1 | 98
Cc1ccc(Nc2nccc(N(C)c3ccc4c(C)n(C)nc4c3)n2)cc1S(N)(=O)=O | 98.6
O=C(O)c1ccc2c3c1cccc3c(=O)n1c3ccccc3nc21 | 95.8
Nc1[nH]nc2nc3ccccc3nc12 | 98
O=C(CCCc1ccc(-c2ccccc2F)cc1)Nc1ccc(O)cc1 | 109
Cc1nc(-c2ccccc2)c(-c2ccncc2)o1 | 106
O=C1NC(=O)C(c2cn(CCCO)c3ncccc23)=C1c1cnccn1 | 91.3
CNC(=O)c1cc(Oc2ccc(NC(=O)Nc3ccc(Cl)c(C(F)(F)F)c3)cc2)ccn1 | 99.2
O=S(=O)(c1cccc2cnccc12)N1CCCNCC1 | 98.1
C#Cc1cccc(Nc2ncnc3cc(OCCOC)c(OCCOC)cc23)c1 | 101
COc1ccc(CNC(=O)Nc2ncc([N+](=O)[O-])s2)cc1 | 101
OCC(O)CCON=C1C(c2c(O)[nH]c3ccccc23)=Nc2ccccc21 (centres unmarked) | 79.7
COc1cc2ncnc(Nc3ccc(F)c(Cl)c3)c2cc1OCCCN1CCOCC1 | 102
Cc1cccc(-c2[nH]c(C(C)(C)C)nc2-c2ccc3c(c2)OCO3)n1 | 94.2
Cn1sc(=O)n(Cc2ccccc2)c1=O | 101

Study 3
Cell line: HaCaT
Concentration: 100 µM
Time: 60 h
SMILES | viability
O=C(CCCl)NCc1ccccc1 | 145%
C[N+](C)(C)CCOC(N)=O | 130%
Cc1c(O)c(=O)n(-c2ccccc2)n1C | 156%
CN1C(C)(C)CCCC1(C)C | 124%
COc1ccc(C(Cl)=C(c2ccc(OC)cc2)c2ccc(OC)cc2)cc1 | 115%
CCN(Cc1ccncc1)C(=O)C(CO)c1ccccc1 (centres unmarked) | 142%
COCCCN1CCC(NC(=O)c2cc(Cl)c(N)c3c2OCC3)CC1 | 113%
O=C(O)c1cn(-c2ccc(F)cc2)c2cc(N3CCNCC3)c(F)cc2c1=O | 152%
CC(=O)c1ccc(S(=O)(=O)NC(=O)NC2CCCCC2)cc1 | 130%

Study 4
Compound: Cc1c(NC(=O)c2cc(C(N)=O)nc3cc(F)ccc23)c(C(F)(F)F)nn1Cc1ccc(C#N)cc1
Effect on: cell-free assay
Method: competition with immobilised ligand
Concentration: 1 µM
target | remaining binding [%]
RIOK3 (Homo sapiens, UniProt O14730) | 75
PIK3C3 (Homo sapiens, UniProt Q8NEB9) | 99
IRAK3 (Homo sapiens, UniProt Q9Y616) | 94
DCLK2 (Homo sapiens, UniProt Q8N568) | 82
STK39 (Homo sapiens, UniProt Q9UEW8) | 94
EGFR (Homo sapiens, UniProt P00533, del747-752/P753S) | 61
CAMK1 (Homo sapiens, UniProt Q14012) | 100
MAPKAPK5 (Homo sapiens, UniProt Q8IW41) | 84
EGFR (Homo sapiens, UniProt P00533, L858R/T790M) | 93

Excerpt of the above (study 4):
target | remaining binding [%]
CAMK1 (Homo sapiens, UniProt Q14012) | 100
MAPKAPK5 (Homo sapiens, UniProt Q8IW41) | 84
EGFR (Homo sapiens, UniProt P00533, L858R/T790M) | 93
